# Measured values from different studies.
# ± gives the spread as reported.
SMILES,test,test system,conditions,Cmax
Cn1c(=O)oc2ccc(-c3ccc(CC(C#N)NC(=O)C4CNCCCO4)c(F)c3)cc21 (stereo not drawn),,"human, plasma","40 mg once daily, day 28, geometric mean",380 ng/mL
CCc1c2c(nc3ccc(O)cc13)-c1cc3c(c(=O)n1C2)COC(=O)[C@]3(O)CC,,"human patients, plasma","intravenous, 24 mg/m^2 of parent drug",54 ng/mL
CCc1cc(Nc2nc(-c3ccc(-n4cnc(C)c4)c(F)c3)cs2)c(C)cc1C,,"human, both sexes, plasma","oral, 100 mg, day 1, multiple dose, geometric mean",322 ng/mL
CC[C@H](C)[C@H](NC(=O)[C@H](CC(C)C)NC(=O)[C@H](Cc1c[nH]c2ccccc12)NC(=O)[C@H](C)NC(=O)[C@@H](NC(=O)[C@H](Cc1ccccc1)NC(=O)[C@H](CC(=O)O)NC(=O)[C@H](CCCNC(=N)N)NC(=O)[C@H](C)NC(=O)[C@H](C)NC(=O)[C@H](CC(C)C)NC(=O)[C@H](C)NC(=O)[C@H](CC(=O)O)NC(=O)[C@H](CC(C)C)NC(=O)[C@@H](NC(=O)[C@@H](NC(=O)[C@H](C)NC(=O)[C@H](CC(C)C)NC(=O)[C@H](CCC(=O)O)NC(=O)[C@H](CO)NC(=O)[C@H](CO)NC(=O)[C@H](Cc1ccccc1)NC(=O)[C@@H](NC(=O)CNC(=O)[C@H](CCC(=O)O)NC(=O)CNC(=O)[C@@H](N)Cc1c[nH]cn1)[C@@H](C)O)[C@@H](C)O)[C@@H](C)CC)[C@@H](C)CC)C(=O)N[C@@H](C)C(=O)N[C@H](C(=O)N[C@@H](CCCCN)C(=O)N[C@H](C(=O)N[C@H](C(=O)N[C@@H](CC(=O)O)C(=O)N[C@@H](CCCCN)C(=O)O)[C@@H](C)O)[C@@H](C)CC)[C@@H](C)O,immunoaffinity LC-MS/MS,"healthy human subjects, plasma","subcutaneous, 10 mg once weekly, day 36 after 6 doses, steady state, geometric mean",5.32 nM
O=C(O[C@@H]1Cc2c(O)cc(O)cc2O[C@@H]1c1cc(O)c(O)c(O)c1)c1cc(O)c(O)c(O)c1,,"human, male, plasma","oral, 135 mg, catechin-rich beverage",234 ± 77.6 nM
CC(C)(O)c1ncc([S@](N)(=O)=NC(=O)Nc2c3c(cc4c2CCC4)CCC3)s1,,healthy human,"oral, 100 mg once daily, day 1, spray-dried dispersion, geometric mean",10700 ng/mL
CC(=O)N[C@H](CC(=O)O)C(=O)N[C@H](Cc1c[nH]c2ccccc12)C(=O)N[C@H](Cc1ccccc1)C(=O)N[C@H](CCCCN)C(=O)N[C@H](C)C(=O)N[C@H](Cc1ccccc1)C(=O)N[C@H](Cc1ccc(O)cc1)C(=O)N[C@H](CC(=O)O)C(=O)N[C@H](CCCCN)C(=O)N[C@@H](C(=O)N[C@H](C)C(=O)N[C@H](CCC(=O)O)C(=O)N[C@H](CCCCN)C(=O)N[C@H](Cc1ccccc1)C(=O)N[C@H](CCCCN)C(=O)N[C@H](CCC(=O)O)C(=O)N[C@H](C)C(=O)N[C@H](Cc1ccccc1)C(N)=O)C(C)C,,"human, statin-treated high-risk CHD, male, plasma","oral, 500 mg daily, day 13, 0 to 8 h, mean, undetectable set to 0",33.6 ng/mL
CCCOc1ccc(S(N)(=O)=O)cc1-c1nc2c(CCC)nn(C)c2c(=O)[nH]1,,"healthy male humans, plasma","oral, 200 mg of udenafil",394 ± 87.7 ng/mL
O=C(CCc1ccc(CNC(C(=O)OC2CCCC2)C2CCCCC2)cn1)NO (stereo not drawn),,"human, plasma","oral, 40 mg once daily, day 1, geometric mean",166 ng/mL
Cc1nc(C)c(C=[N+]([O-])C(C)(C)C)nc1C,,"human both sexes, serum","oral, 1200 mg twice daily, 7 days, tablet",114000 nM
CC[C@H](C)[C@H](NC(=O)[C@H](CC(C)C)NC(=O)[C@H](Cc1c[nH]c2ccccc12)NC(=O)[C@H](C)NC(=O)[C@@H](NC(=O)[C@H](Cc1ccccc1)NC(=O)[C@H](CC(=O)O)NC(=O)[C@H](CCCNC(=N)N)NC(=O)[C@H](C)NC(=O)[C@H](C)NC(=O)[C@H](CC(C)C)NC(=O)[C@H](C)NC(=O)[C@H](CC(=O)O)NC(=O)[C@H](CC(C)C)NC(=O)[C@@H](NC(=O)[C@@H](NC(=O)[C@H](C)NC(=O)[C@H](CC(C)C)NC(=O)[C@H](CCC(=O)O)NC(=O)[C@H](CO)NC(=O)[C@H](CO)NC(=O)[C@H](Cc1ccccc1)NC(=O)[C@@H](NC(=O)CNC(=O)[C@H](CCC(=O)O)NC(=O)CNC(=O)[C@@H](N)Cc1c[nH]cn1)[C@@H](C)O)[C@@H](C)O)[C@@H](C)CC)[C@@H](C)CC)C(=O)N[C@@H](C)C(=O)N[C@H](C(=O)N[C@@H](CCCCN)C(=O)N[C@H](C(=O)N[C@H](C(=O)N[C@@H](CC(=O)O)C(=O)N[C@@H](CCCCN)C(=O)N[C@@H](CCCCN)C(=O)O)[C@@H](C)O)[C@@H](C)CC)[C@@H](C)O,immunoaffinity LC-MS/MS,"healthy human subjects, plasma","intravenous infusion, 1 mg single dose, infused over 15 min",0.446 nM
CC(=O)Nc1ccc(C(N)=O)c(F)c1,HPLC-MS/MS,"human, male, plasma","25 mg, geometric mean, 1",10.2 ng/mL
CN1CCC[C@]1(C)/C=C/S(=O)(=O)NC(=O)Nc1c2c(cc3c1CCC3)CCC2,,"human, plasma","oral, 12.5 to 100 mg twice daily, 14 days, second dose at steady state",1800 to 16100 ng/mL
O=C(CCc1ccc(CNC(C(=O)O)C2CCCCC2)cn1)NO (stereo not drawn),,"human, plasma","oral, 20 mg once daily, day 1, geometric mean",78 ng/mL
[2H]C([2H])(c1ccc(O)c(O)c1)[C@]([2H])(N)C(=O)O,,"human, plasma","oral, 150 mg single, geometric LS mean, with: 37.5 mg carbidopa",2160 ng/mL

# A few entries again:
SMILES,test,test system,conditions,Cmax
CC[C@H](C)[C@H](NC(=O)[C@H](CC(C)C)NC(=O)[C@H](Cc1c[nH]c2ccccc12)NC(=O)[C@H](C)NC(=O)[C@@H](NC(=O)[C@H](Cc1ccccc1)NC(=O)[C@H](CC(=O)O)NC(=O)[C@H](CCCNC(=N)N)NC(=O)[C@H](C)NC(=O)[C@H](C)NC(=O)[C@H](CC(C)C)NC(=O)[C@H](C)NC(=O)[C@H](CC(=O)O)NC(=O)[C@H](CC(C)C)NC(=O)[C@@H](NC(=O)[C@@H](NC(=O)[C@H](C)NC(=O)[C@H](CC(C)C)NC(=O)[C@H](CCC(=O)O)NC(=O)[C@H](CO)NC(=O)[C@H](CO)NC(=O)[C@H](Cc1ccccc1)NC(=O)[C@@H](NC(=O)CNC(=O)[C@H](CCC(=O)O)NC(=O)CNC(=O)[C@@H](N)Cc1c[nH]cn1)[C@@H](C)O)[C@@H](C)O)[C@@H](C)CC)[C@@H](C)CC)C(=O)N[C@@H](C)C(=O)N[C@H](C(=O)N[C@@H](CCCCN)C(=O)N[C@H](C(=O)N[C@H](C(=O)N[C@@H](CC(=O)O)C(=O)N[C@@H](CCCCN)C(=O)O)[C@@H](C)O)[C@@H](C)CC)[C@@H](C)O,immunoaffinity LC-MS/MS,"healthy human subjects, plasma","subcutaneous, 10 mg once weekly, day 36 after 6 doses, steady state, geometric mean",5.32 nM
O=C(O[C@@H]1Cc2c(O)cc(O)cc2O[C@@H]1c1cc(O)c(O)c(O)c1)c1cc(O)c(O)c(O)c1,,"human, male, plasma","oral, 135 mg, catechin-rich beverage",234 ± 77.6 nM
